Assay results pooled from the literature.
Parts stem from different laboratories: compare values within a part only.

Block 1
Target: RNA binding protein fox-1 homolog 2, RRM domain, GST-SBP tag (RBFOX2, Homo sapiens, UniProt O43251-10, residues 100-194)
Method: RNA Bind-n-Seq
Molecule type: RNA
Medium: in vitro
Concentration: 365 nM
Notes: natural RNA segment, single round, ends assumed
Baseline: no-protein control
Reading: higher = stronger binding
Target sequence (chain): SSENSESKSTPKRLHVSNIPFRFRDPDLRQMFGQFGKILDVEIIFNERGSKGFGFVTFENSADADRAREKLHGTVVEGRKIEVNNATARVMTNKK
Oligonucleotide	RBNS enrichment (R)
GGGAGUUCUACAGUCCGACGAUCUUGAGUUUGUAGCUUAGAAUUGGGAGGAUACUUAACAUCUGGAAGACAAGUUCAUUUCAUCUUGAGAUCAUGGUGAAAUAUUUUGGAUAUAUAAAUUCCUUAAGCUAUUGUGGAAUUCUCGGGUGCCAA	0.326
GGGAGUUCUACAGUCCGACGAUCGAUGUUUUAUGUUUUAUAUUUAUAAUGUUCAAAAUGCAAGCAUAACAUUUAAUAUUUGUCCACAUGGUUUUACAAAAGUAAAUCUUAAAUUACUAAGCUUUUCCCAUAUGUGGAAUUCUCGGGUGCCAA	0.731
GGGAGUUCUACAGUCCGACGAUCUUCAGUUGUUUUUUUGUAAAAUAUAGUAGAACGGUUGUAACUGAUACUGGCCAAAAUCAAUGUUAUUCCAUAUUUUAUUUUUUCUAUUAAAUUAACCUAAGUUCCUGUUUUGGAAUUCUCGGGUGCCAA	1.25
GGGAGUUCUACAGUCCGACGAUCGGUCAGCAUUACAUUUGAGAGAAUACUAGACAUGACUACACUUAUUAGGGCUAGUGACUUUCUCAAACUCAGAAGCUAAAAAGCAGCCUAGAUGACUAUGCACACACUGGUGGAAUUCUCGGGUGCCAA	0.391
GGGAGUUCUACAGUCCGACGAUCAUCUCAAAAAAAAAGAAAAGAAGGUCCAGCUUUUGGAUUCAAUGAGUGGGAAAUACAUUGUGCCUUUCUCUAGAUGUGAUACGUUAUACCAAAAUCUUUGUAGUGUGCAGUGGAAUUCUCGGGUGCCAA	0.689
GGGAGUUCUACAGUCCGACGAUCUGCUUUCUCAGUGUGUGUAUGGUCCAUGCCCAGUGCUGGUGACAGGGUGGGUAUCCAUGAUGUGUGCCCAGCCUGGAUGUCAGCUGUGUCCUGUGGGGGCGUGUGUGUAAUGGAAUUCUCGGGUGCCAA	0.932
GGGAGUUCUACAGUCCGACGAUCCAGGAAAAACCCAAAGAAAGCGGCCAAAUGUUGCGACAAUUAAGAAGACAGCACUCACUGGGAUGAAGCAGGGAGCAGGGCUGCCGCCACCCACAUUCCACUCUAGUUGGUGGAAUUCUCGGGUGCCAA	0.369
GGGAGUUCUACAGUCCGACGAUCCGAAGAAAAAGAAAAUAAAAUGUAUAGGCAGGGUUCCUUCAAUUGGCAUUUUCCCCAGAAUUGUGAGCCAAAGCCUAUAGUAAUUGCAGACAGCAAAUGAUUCCGGAUCUUGGAAUUCUCGGGUGCCAA	0.414

Block 2
Target: Replicase polyprotein 1ab, 3C-like proteinase (rep, Middle East respiratory syndrome-related coronavirus, UniProt K9N7C7)
Effect on: enzyme activity
Concentration: 10 µM
Structure (SMILES)	inhibition [%]
CC(CN1CC(=O)NC(=O)C1)N1CC(=O)NC(=O)C1 (stereo not shown)	7
CC(C)N(CCC(=O)c1ccc2ccccc2c1)Cc1ccccc1	61.5
O=C(O)c1cc(O)c2c(c1)[C@H]([C@H]1c3cc(C(=O)O)cc(O)c3C(=O)c3c(O[C@@H]4O[C@H](CO)[C@@H](O)[C@H](O)[C@H]4O)cccc31)c1cccc(O[C@@H]3O[C@H](CO)[C@@H](O)[C@H](O)[C@H]3O)c1C2=O	42
Nc1ccc2cc3ccc(N)cc3nc2c1	37
CCOC(=O)Cc1ccc(-c2ccccc2)cc1	18
O=[N+]([O-])C(Br)(CO)CO	14

Block 3
Target: Histone acetyltransferase KAT6A, winged helix 2, GST fusion (KAT6A, Homo sapiens, UniProt Q92794, residues 85-181)
Method: protein binding microarray
Molecule type: double-stranded DNA, one strand shown
Medium: in vitro
Concentration: not given
Notes: 8-mer, flanks averaged, mean of 2 arrays, mostly near background
Baseline: not given
Reading: higher = stronger binding
Target sequence (chain): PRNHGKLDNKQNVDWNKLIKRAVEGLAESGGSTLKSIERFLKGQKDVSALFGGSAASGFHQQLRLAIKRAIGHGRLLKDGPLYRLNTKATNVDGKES
Oligonucleotide	E-score
CGGTTAGC	-0.0407
CAAAGGCC	-0.022
CAGACAGC	-0.126
ATCGGTGC	0.063
AATGCTGT	0.0434
ATAGGCAC	0.117
ATATTAGG	-0.094
TCACTTAA	0.0202

Block 4
Target: Replicase polyprotein 1ab, polymerase (rep, Severe acute respiratory syndrome coronavirus 2, UniProt P0DTD1)
Effect on: enzyme activity
Action: inhibitor
Concentration: 20 µM
Structure (SMILES)	inhibition [%]
CN(C)CCc1c[nH]c2ccc(C[C@H]3COC(=O)N3)cc12	-19.4
CC(=O)O[C@H]1Cc2ccccc2N(C(N)=O)c2ccccc21	-4.09
CCCCCCCCC(=O)N[C@H](CN1CCCC1)[C@H](O)c1ccc2c(c1)OCCO2	-3.51
CC12CC3CC(C)(C1)CC(N)(C3)C2	15
COC(=O)C1=CO[C@@H](O)[C@@H]2C(CO)=CC[C@H]12	-1.82
CSc1ccc2c(c1)C(N1CCN(C)CC1)Cc1ccccc1S2 (stereo not shown)	-14.2
COc1cc(C(C)=O)ccc1OCCCN1CCC(c2noc3cc(F)ccc23)CC1	-5.35
CCNC(=O)c1[nH]nc(-c2cc(Cl)c(O)cc2O)c1-c1ccc(OC)cc1	-1.82
O=c1ccc2ccccc2[nH]1	19.9
CC(C)(C)c1nc(-c2cccc(NS(=O)(=O)c3c(F)cccc3F)c2F)c(-c2ccnc(N)n2)s1	3.8
NC(=O)c1nc(F)cnc1O	2.79
C=C(C)[C@@H]1CC=C(CO)CC1	2.5
COC(=O)N1CCN(Cc2cccc(NC(=O)Nc3ccc(C)nc3)c2F)CC1	3.6
Cc1ncc(-c2ccnc(Nc3ccc(S(C)(=O)=O)cc3)n2)n1C(C)C	0.75
CC1(C)CCC(C)(C)c2cc(C(=O)Nc3ccc(C(=O)O)cc3)ccc21	9.61
Cc1ccc2c(c1)[C@H]1CN(C)CC[C@H]1N2	2.76
CCCN(CCC)CCc1ccc(OC)c(OCCc2ccccc2)c1	0.14
Cc1c(-c2ccc(O)cc2)n(Cc2ccc(OCCN3CCCCCC3)cc2)c2ccc(O)cc12	18.6
Nc1nc(NC[C@H]2CC[C@H](CNS(=O)(=O)c3cccc4ccccc34)CC2)nc2ccccc12	14.5
O=c1cc[nH]c(=O)[nH]1	0.34
C[C@]12CCC(=O)C(O)=C1CC[C@@H]1[C@@H]2CC[C@]2(C)C(=O)CC[C@@H]12	0.44
N=C1NC(=O)/C(=C/c2ccc(O)cc2)S1	3.43
CC1(C)O[C@@H]2C[C@H]3[C@@H]4CCC5=CC(=O)C=C[C@]5(C)[C@H]4[C@@H](O)C[C@]3(C)[C@]2(C(=O)CO)O1	-8.43
Cc1cc(=O)[nH]c(=S)[nH]1	28
NCC(=O)Nc1ccc(-n2nc(C(F)(F)F)cc2-c2ccc3c(ccc4ccccc43)c2)cc1	-11.8

Block 5
Target: Interferon regulatory factor 5, full length, phosphomimetic (IRF5, Homo sapiens, UniProt Q13568-2, residues 1-514, K96S/S451D/S453D/S456D/S462D)
Method: protein-binding microarray
Molecule type: double-stranded DNA, one strand shown
Medium: in vitro
Concentration: 250 nM
Notes: 60-bp whole probe
Added: salmon DNA 0.4 mg/ml
Baseline: random background probes
Reading: higher = stronger binding
All sequences stand within: GCCTAGCAC … GTCTTGATTCGCTTGACGCTGCTG
Oligonucleotide	log fluorescence [z-score]
TTAGGTCTCCTTTTCCTTAAGTGCTAG	0.251
GACGGAATCGGGTATCGGGACGTGCTA	0.608
AAGCCAGGACGAGCTCGCCTGTGCTAG	-0.897
TTAGTTTTCGACTATCGGTTAGTGCTA	8.41
TCTAGCCTCCATTTTTACCCGTGCTAG	-0.322
TCCTCTTTTTTGTTCCACGCGTGCTAG	1.05
TTCACTTTAAATTAGACTTAGTGCTAG	0.919
TTAGAACTGTGACTGGATTAGTGCTAG	-0.125
